Assay results from different studies.
Parts stem from different laboratories: compare values within a part only. Positions count from the first letter of the parent shown.

Block 1 — read-out: binding; method: phage display NGS; form: peptide; baseline: input library
Target: UDP-N-acetylglucosamine--peptide N-acetylglucosaminyltransferase 110 kDa subunit (OGT, Homo sapiens, UniProt O15294)
Residues (O15294 1-1046): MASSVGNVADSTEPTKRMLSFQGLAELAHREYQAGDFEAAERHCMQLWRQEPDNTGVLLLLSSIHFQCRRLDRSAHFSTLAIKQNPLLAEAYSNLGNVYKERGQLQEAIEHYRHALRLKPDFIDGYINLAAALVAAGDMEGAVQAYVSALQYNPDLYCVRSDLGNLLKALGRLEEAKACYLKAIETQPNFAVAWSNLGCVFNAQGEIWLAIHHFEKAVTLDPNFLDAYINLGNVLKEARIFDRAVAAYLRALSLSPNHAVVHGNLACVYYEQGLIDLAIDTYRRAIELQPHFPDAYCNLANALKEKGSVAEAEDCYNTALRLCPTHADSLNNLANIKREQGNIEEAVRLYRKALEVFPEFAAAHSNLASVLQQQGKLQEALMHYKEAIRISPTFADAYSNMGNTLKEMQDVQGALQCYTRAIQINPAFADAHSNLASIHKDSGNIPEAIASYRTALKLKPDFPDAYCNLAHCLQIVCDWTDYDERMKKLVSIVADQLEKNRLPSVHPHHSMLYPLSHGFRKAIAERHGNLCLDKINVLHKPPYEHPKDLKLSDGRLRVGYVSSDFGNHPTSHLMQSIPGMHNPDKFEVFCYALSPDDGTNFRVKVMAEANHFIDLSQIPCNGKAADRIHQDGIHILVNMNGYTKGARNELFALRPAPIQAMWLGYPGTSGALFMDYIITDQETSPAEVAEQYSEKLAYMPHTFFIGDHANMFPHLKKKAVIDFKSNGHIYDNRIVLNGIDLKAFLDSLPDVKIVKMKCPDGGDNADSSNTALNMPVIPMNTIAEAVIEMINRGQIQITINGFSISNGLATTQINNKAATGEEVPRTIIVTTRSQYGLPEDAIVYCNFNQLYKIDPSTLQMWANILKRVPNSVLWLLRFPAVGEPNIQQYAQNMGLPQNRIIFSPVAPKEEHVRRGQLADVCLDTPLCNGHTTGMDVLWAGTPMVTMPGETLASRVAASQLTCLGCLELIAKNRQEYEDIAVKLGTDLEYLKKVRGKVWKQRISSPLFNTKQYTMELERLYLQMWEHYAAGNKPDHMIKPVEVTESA
Molecule | minimum log2 enrichment ratio
EAAATFPPMYQLQVV | 3.83
HYTPHQQQRAHAKWS | 3.77
HQHRDMRTHPSHGAI | 3.27
HSTPYHYSHVHEPYF | 2.02
NLIIDFMPKYQLFYQ | 4.15
HFDHYYNAHEDHVA | 1.82
ATRYDMHHPHLHPSN | 1.94
HHPAHRTPMFATTF | 1.03
HVYHKNHADTHAVAH | 3.11
TIYLPKYQIFTAIT | 4.99
GRYSYDPQYTIDYKR | 1.44

Block 2 — target: CREBL2, bZIP domain (human); method: DHFR protein complementation; matrix: yeast; baseline: wild-type JUN-FOS pair; reading: higher = stronger binding
Setting: single substitutions, most at no-binding floor
Parent: JUN, bZIP domain (human); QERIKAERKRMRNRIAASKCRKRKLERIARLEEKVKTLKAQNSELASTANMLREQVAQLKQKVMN; partner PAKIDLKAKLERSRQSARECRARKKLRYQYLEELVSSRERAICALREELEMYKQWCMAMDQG
Substitution | binding fitness
R53H | -1.53 natural log
A49Q | -1.44 natural log
E54I | -1.3 natural log
L52K | -1.58 natural log
K34G | -1.43 natural log
V56N | -1.57 natural log
Q41W | -1.5 natural log
V35E | -1.57 natural log

Block 3 — target: CCND1, cyclin fold, Cln2 fusion (human); method: yeast growth competition, sequencing; matrix: yeast; setting: strong parent motif; baseline: not given; reading: higher = stronger binding
Parent: viral docking peptide; KGVKRKLFAEDSS; partner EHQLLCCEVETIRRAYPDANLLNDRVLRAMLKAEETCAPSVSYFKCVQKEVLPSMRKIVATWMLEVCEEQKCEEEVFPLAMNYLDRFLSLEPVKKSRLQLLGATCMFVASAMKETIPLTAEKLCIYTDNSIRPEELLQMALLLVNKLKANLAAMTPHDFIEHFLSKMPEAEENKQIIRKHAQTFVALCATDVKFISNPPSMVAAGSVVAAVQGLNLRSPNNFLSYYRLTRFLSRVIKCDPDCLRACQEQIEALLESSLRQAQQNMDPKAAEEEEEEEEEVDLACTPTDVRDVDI
Substitution | normalised enrichment score
KGVFRKLFAEDSS [K4F] | 0.343
KGVKRVLFAEDSS [K6V] | 1.01
KGFKRKLFAEDSS [V3F] | 0.295
KEVKRKLFAEDSS [G2E] | 1.3
KGKKRKLFAEDSS [V3K] | -0.146
KGVKRKCFAEDSS [L7C] | 0.00346
KGVKRKLFATDSS [E10T] | 0.409
KGVKRKLHAEDSS [F8H] | -0.242

Block 4 — target: inorganic phosphate, free oxyanion; method: microfluidic competitive inhibition; matrix: in vitro, cell-free expressed; tested at: not given; reading: lower = stronger binding
Setting: derived from inhibition constants, unchanged parent 615000 nM
Parent: PafA, mature enzyme, eGFP fusion (Elizabethkingia meningoseptica, UniProt Q9KJX5); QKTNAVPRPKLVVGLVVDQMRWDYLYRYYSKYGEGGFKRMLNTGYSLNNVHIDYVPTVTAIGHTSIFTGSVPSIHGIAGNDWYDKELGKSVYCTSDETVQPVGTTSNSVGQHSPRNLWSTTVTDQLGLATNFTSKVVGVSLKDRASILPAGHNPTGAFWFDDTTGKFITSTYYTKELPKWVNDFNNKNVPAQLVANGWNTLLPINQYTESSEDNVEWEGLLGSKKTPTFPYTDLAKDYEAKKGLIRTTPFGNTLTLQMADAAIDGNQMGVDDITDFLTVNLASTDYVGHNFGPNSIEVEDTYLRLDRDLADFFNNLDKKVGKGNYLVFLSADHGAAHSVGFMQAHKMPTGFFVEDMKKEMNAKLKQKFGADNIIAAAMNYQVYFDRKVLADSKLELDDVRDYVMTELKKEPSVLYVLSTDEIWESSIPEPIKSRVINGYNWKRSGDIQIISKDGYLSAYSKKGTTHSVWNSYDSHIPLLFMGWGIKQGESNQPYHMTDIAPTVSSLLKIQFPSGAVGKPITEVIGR
Substitution | phosphate dissociation constant
A60G | 443 µM
L407V | 662 µM
N116V | 696 µM
V58G | 290 µM
L220G | 483 µM
I431G | 285 µM
K319G | 507 µM
P7G | 552 µM
V50G | 348 µM
L389G | 593 µM
K175G | 602 µM
N188V | 627 µM
L201V | 627 µM
L117G | 471 µM
P249V | 573 µM

For quick reference, copied from above (block 3):
Substitution | normalised enrichment score
KEVKRKLFAEDSS [G2E] | 1.3
KGVFRKLFAEDSS [K4F] | 0.343
KGVKRKLFATDSS [E10T] | 0.409
KGVKRVLFAEDSS [K6V] | 1.01
KGFKRKLFAEDSS [V3F] | 0.295
